Assay results gathered from unrelated publications.
Each line is one published result; not all experiments were run side by side. Numbers after ± are the reported error.
Spike glycoprotein: Spike glycoprotein (Severe acute respiratory syndrome coronavirus 2, UniProt P0DTC2)
cyp121: Mycocyclosin synthase (cyp121, Mycobacterium tuberculosis, UniProt P9WPP7)
Nucleoprotein: Nucleoprotein (Severe acute respiratory syndrome coronavirus 2, UniProt P0DTC9)
gag capsid C-terminal domain: Gag polyprotein, capsid C-terminal domain (gag, UniProt P12493)
Chain of UniProt P33261 (whole entry, looked up): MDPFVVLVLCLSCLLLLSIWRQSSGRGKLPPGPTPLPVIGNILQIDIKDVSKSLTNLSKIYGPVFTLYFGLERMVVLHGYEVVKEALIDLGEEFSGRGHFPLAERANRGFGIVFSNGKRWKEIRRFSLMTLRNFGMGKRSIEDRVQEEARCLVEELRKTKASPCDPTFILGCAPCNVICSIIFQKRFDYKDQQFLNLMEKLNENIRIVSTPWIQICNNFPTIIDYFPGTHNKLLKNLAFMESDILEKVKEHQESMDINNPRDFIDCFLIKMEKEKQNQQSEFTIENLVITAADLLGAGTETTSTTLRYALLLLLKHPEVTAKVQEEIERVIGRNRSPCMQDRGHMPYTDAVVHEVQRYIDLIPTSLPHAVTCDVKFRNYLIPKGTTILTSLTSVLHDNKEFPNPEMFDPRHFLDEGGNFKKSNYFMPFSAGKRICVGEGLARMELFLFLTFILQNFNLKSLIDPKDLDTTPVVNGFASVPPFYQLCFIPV
Chain of UniProt P78348 (whole entry, looked up): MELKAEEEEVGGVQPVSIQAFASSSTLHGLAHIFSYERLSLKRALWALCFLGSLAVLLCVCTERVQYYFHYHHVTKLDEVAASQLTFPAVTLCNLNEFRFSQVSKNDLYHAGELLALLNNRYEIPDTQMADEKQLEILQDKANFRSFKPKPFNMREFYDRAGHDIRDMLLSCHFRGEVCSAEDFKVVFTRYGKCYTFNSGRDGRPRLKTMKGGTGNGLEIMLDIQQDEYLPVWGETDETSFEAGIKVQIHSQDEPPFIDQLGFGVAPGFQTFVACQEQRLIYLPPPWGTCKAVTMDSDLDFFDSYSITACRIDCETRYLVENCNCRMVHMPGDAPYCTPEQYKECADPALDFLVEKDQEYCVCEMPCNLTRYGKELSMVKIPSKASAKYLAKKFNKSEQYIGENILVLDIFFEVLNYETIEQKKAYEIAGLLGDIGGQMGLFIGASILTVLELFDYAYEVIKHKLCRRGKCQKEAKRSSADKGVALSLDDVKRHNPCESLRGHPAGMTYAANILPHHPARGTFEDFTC

Molecule | tested on | test | system | conditions | how to read | quantity | value
CC[C@H](C)[C@H](NC(=O)[C@H](CC(C)C)NC(=O)[C@H](Cc1c[nH]c2ccccc12)NC(=O)[C@H](CCC(N)=O)NC(=O)[C@@H](NC(=O)[C@H](Cc1ccccc1)NC(=O)[C@H](C)NC(=O)[C@H](CCCCNC(=O)COCCOCCNC(=O)COCCOCCNC(=O)CC[C@H](NC(=O)CCCCCCCCCCCCCCCCCCC(=O)O)C(=O)O)NC(=O)[C@H](CCC(N)=O)NC(=O)[C@H](C)NC(=O)[C@@H](NC(=O)[C@H](CCCCN)NC(=O)[C@H](CC(=O)O)NC(=O)[C@H](CC(C)C)NC(=O)C(C)(C)NC(=O)[C@@H](NC(=O)[C@H](CO)NC(=O)[C@H](Cc1ccc(O)cc1)NC(=O)[C@H](CC(=O)O)NC(=O)[C@H](CO)NC(=O)[C@@H](NC(=O)[C@H](Cc1ccccc1)NC(=O)[C@@H](NC(=O)CNC(=O)[C@H](CCC(=O)O)NC(=O)C(C)(C)NC(=O)[C@@H](N)Cc1ccc(O)cc1)[C@@H](C)O)[C@@H](C)O)[C@@H](C)CC)[C@@H](C)CC)C(C)C)C(=O)N[C@@H](C)C(=O)NCC(=O)NCC(=O)N1CCC[C@H]1C(=O)N[C@@H](CO)C(=O)N[C@@H](CO)C(=O)NCC(=O)N[C@@H](C)C(=O)N1CCC[C@H]1C(=O)N1CCC[C@H]1C(=O)N1CCC[C@H]1C(=O)N[C@@H](CO)C(N)=O | – | measured: anti-drug antibodies | patients with type 2 diabetes | 5 mg, postbaseline, proof of concept, titre ≥1:20 | – | subjects with treatment-induced ADA | 0%
CC(C)=CCc1cc2c(cc1O)O[C@H](c1ccc(O)cc1)CC2=O | Spike glycoprotein | binding | – | – | – | Kd | 56 µM
CC(=O)O[C@@H]1[C@H](N)[C@@H](OP(=O)(O)O)[C@@]2(C(=O)O)CS[C@@](O)(C(N)=O)[C@@H]1O2 | DNA-directed RNA polymerase subunit beta' / DNA-directed RNA polymerase subunit beta (rpoC/rpoB, Escherichia coli, UniProt P0A8T7+P0A8V2, M932A) | binding to elongation complex, 6-MI fluorescence titration | β′M932A RNAP | riboside RNA 3′-end adenine | – | Kd | 0.65 ± 0.16 µM
Cn1cnc(Cn2c(=O)[nH]/c(=N\c3cc4cn(C)nc4cc3Cl)n(Cc3cc(F)c(F)cc3F)c2=O)n1 | Cytochrome P450 2C19 (CYP2C19, Homo sapiens, UniProt P33261) | inhibitor | human liver microsomes | 30 min preincubation, preincubation without NADPH, added: S-mephenytoin 60 µM | – | IC50 | > 100 µM
CCc1ccccc1N1CC(c2nc3ccccc3n2CCCCOc2ccccc2OC)CC1=O (stereo not drawn) | SARS-CoV-2 | cytopathic effect | USA_WA1/2020 | round 1, 5-point | – | maximum response | 35.5%
C=CC(c1ccc(-c2ccc(O)c(Cl)c2)cc1)n1ccnc1 (stereo not drawn) | cyp121 | binding | – | – | – | Kd | 8.3 ± 1.7 µM
O=C(/C=C/c1ccc(O)c(O)c1)O[C@H]1[C@H](O)C[C@](O)(C(=O)O)C[C@H]1OC(=O)/C=C/c1ccc(O)c(O)c1 | Spike glycoprotein | binding, biolayer interferometry | – | – | – | Kd | 22.1 µM
CC[C@H](C)[C@H](NC(=O)[C@@H]1CCCN1C(=O)[C@H](C)NC(=O)[C@@H]1CSSC[C@@H]2NC(=O)[C@H](CC(=O)O)NC(=O)[C@H](CCCNC(=N)N)NC(=O)[C@H](CCC(=O)O)NC(=O)[C@H](CCCNC(=N)N)NC(=O)CNC(=O)[C@H](CC(=O)O)NC(=O)[C@@H]3CSSC[C@H](NC(=O)[C@H](CCC(=O)O)NC(=O)[C@H](CC(C)C)NC(=O)CNC(=O)[C@H](C)NC(=O)[C@H](CSSC[C@H](NC(=O)[C@H](Cc4ccccc4)NC(=O)[C@@H](N)CO)C(=O)N[C@@H](CC(C)C)C(=O)N[C@@H](C(C)C)C(=O)N[C@@H](CCCCN)C(=O)N[C@@H](Cc4c[nH]c5ccccc45)C(=O)N[C@@H](CCCCN)C(=O)N[C@@H](CCC(N)=O)C(=O)N3)NC2=O)C(=O)N[C@@H](Cc2c[nH]c3ccccc23)C(=O)N[C@@H](CCCCN)C(=O)N[C@@H](CCCNC(=N)N)C(=O)N[C@@H](CO)C(=O)N[C@@H](CCCNC(=N)N)C(=O)N[C@@H](CC(N)=O)C(=O)N[C@@H](CCCCN)C(=O)N[C@@H](CO)C(=O)N[C@@H](CO)C(=O)N[C@@H](C(C)C)C(=O)N1)C(=O)N[C@H](C(=O)O)[C@@H](C)O | Acid-sensing ion channel 1 (ASIC1, Homo sapiens, UniProt P78348) | binding, SPR | – | pH 7.5 | – | Kd | 0.00211 µM
C=CC(c1ccc(-c2ccc3c(c2)OCO3)cc1)n1ccnc1 (stereo not drawn) | cyp121 | binding | – | – | – | Kd | 6.7 ± 0.6 µM
CC[C@H]1CN2CCc3cc(OC)c(OC)cc3[C@@H]2C[C@@H]1C[C@H]1NCCc2cc(OC)c(OC)cc21 | Nucleoprotein | binding, SPR | – | – | – | Kd | 18.6 µM
CC[C@H](C)[C@H](N)C(=O)N[C@H](C(=O)N[C@@H](Cc1ccccc1)C(=O)N[C@@H](CSCC(N)=O)C(=O)N[C@@H](CC(=O)O)C(=O)N[C@@H](CC(C)C)C(=O)N[C@@H](CC(C)C)C(=O)N[C@@H](CSCC(N)=O)C(=O)N[C@@H](Cc1ccc(O)cc1)C(=O)N[C@@H](Cc1ccc(O)cc1)C(=O)NCC(=O)N[C@@H](CCCCN)C(=O)N[C@@H](CCCCN)C(=O)N[C@@H](CCCCN)C(N)=O)[C@@H](C)O | gag capsid C-terminal domain | binding, biolayer interferometry | PBS | pH 7.4, 30 °C, biotinylated peptide immobilised, added: C-CA 5 to 100 µM | – | Kd | 5.5 ± 0.6 µM
O=C(O[C@@H]1O[C@@H]2COC(=O)c3cc(O)c(O)c(O)c3-c3c(cc(O)c(O)c3O)C(=O)O[C@H]([C@H]1O)[C@@H]2O)c1cc(O)c(O)c(O)c1 | Spike glycoprotein | binding, biolayer interferometry | – | – | – | Kd | 0.931 µM
C=CC(c1ccc(-c2ccc3[nH]ccc3c2)cc1)n1ccnc1 (stereo not drawn) | cyp121 | binding | – | – | – | Kd | 3.5 ± 0.4 µM
COc1ccc([C@@H](O)c2cc(-c3ncnc4cc(N5CCOCC5)ccc34)c(F)cc2Cl)nn1 | – | – | patients, advanced solid tumours | oral, 150 mg once daily, 10 dosing days, treatment-emergent, added: avelumab, radiotherapy | – | injury, poisoning, procedural complications incidence | 2%
charybdotoxin | maxi-KCa channel, rat | channel block, planar bilayer single-channel | – | external site, +30 mV, added: 460 nM internal DTX-I | – | Kd | 0.00121 ± 0.00021 µM
CNC(=O)[C@@H](NC(=O)[C@H](CC(C)C)[C@H](O)C(=O)NO)C(C)(C)C | human fibrinogen | SDS-PAGE | Daboia russelii | concentration not given, unit not given, added: KA venom | reference: untreated fibrinogen | remaining fibrinogen Aα chain | 0.634
O[C@H]1[C@H]2c3cc4c(cc3CN3CCC(=C[C@@H]1O)[C@H]23)OCO4 | Nucleoprotein | binding, SPR | – | – | – | Kd | 58.2 µM
Nc1ncnc2c1ncn2[C@@H]1O[C@H](CN(CC[C@H](N)C(=O)O)Cc2cn(CCNC(=O)c3ccc4c(c3)C(=O)OC43c4ccc(O)cc4Oc4cc(O)ccc43)nn2)[C@@H](O)[C@H]1O | Genome polyprotein, NS5 methyltransferase domain (Yellow fever virus, UniProt P03314) | binding | – | – | – | Kd | 3 µM
CC(C)=CCc1c(O)ccc(C(=O)/C=C/c2ccc(O)cc2)c1O | Spike glycoprotein | binding, biolayer interferometry | – | – | – | Kd | 8.8 µM
Nc1ncnc2c([C@@H]3N[C@H](CO)[C@@H](O)[C@H]3O)c[nH]c12 | Western equine encephalitis virus | viral replication, inhibitor | Vero 76 | 0.9 µM | – | inhibition | 0%
COc1ccccc1Nc1nc(-c2sc(NC(C)=O)nc2C)cs1 | Replicase polyprotein 1ab, main protease (rep, Severe acute respiratory syndrome coronavirus 2, UniProt P0DTD1) | viral replication, mKate2 reporter | SARS-CoV-2 | 20 µM | – | inhibition | -1.56%
CC(C)=CCC[C@](C)(O[C@@H]1O[C@H](CO[C@@H]2O[C@H](CO)[C@@H](O)[C@H](O)[C@H]2O)[C@@H](O)[C@H](O)[C@H]1O)[C@H]1CC[C@]2(C)[C@@H]1[C@H](O)C[C@@H]1[C@@]3(C)CC[C@H](O[C@@H]4O[C@H](CO)[C@@H](O)[C@H](O)[C@H]4O)C(C)(C)[C@@H]3CC[C@]12C | Spike glycoprotein | binding, biolayer interferometry | – | – | – | Kd | 117 µM
CC(C)OC(=O)[C@H](C)N[P@](=O)(OC[C@H]1O[C@@H](n2ccc(=O)[nH]c2=O)[C@](C)(F)[C@@H]1O)Oc1ccccc1 | Genome polyprotein, NS5 RdRp domain (Yellow fever virus, UniProt P03314) | – | – | – | – | Kd | 6230 µM
CC[C@H](C)[C@H](N)C(=O)N[C@H](C(=O)N[C@@H](Cc1ccccc1)C(=O)N[C@H]1CSc2cc(C(F)(F)F)c(cc2C(F)(F)F)SC[C@@H](C(=O)N[C@@H](Cc2ccc(O)cc2)C(=O)N[C@@H](Cc2ccc(O)cc2)C(=O)NCC(=O)N[C@@H](CCCCN)C(=O)N[C@@H](CCCCN)C(=O)N[C@@H](CCCCN)C(N)=O)NC(=O)[C@H](CC(C)C)NC(=O)[C@H](CC(C)C)NC(=O)[C@H](CC(=O)O)NC1=O)[C@@H](C)O | gag capsid C-terminal domain | binding, biolayer interferometry | PBS | pH 7.4, 30 °C, biotinylated peptide immobilised, added: C-CA 5 to 100 µM | – | Kd | 12 ± 0.8 µM
C=CC(c1ccc(-c2ccc(C#N)cc2)cc1)n1ccnc1 (stereo not drawn) | cyp121 | binding | – | – | – | Kd | 10 ± 1.4 µM
CC[C@H](C)[C@H](N)C(=O)N[C@H](C(=O)N[C@@H](Cc1ccccc1)C(=O)N[C@H]1CSc2ccc(c(C)c2)Oc2ccc(cc2C)SC[C@@H](C(=O)N[C@@H](Cc2ccc(O)cc2)C(=O)N[C@@H](Cc2ccc(O)cc2)C(=O)NCC(=O)N[C@@H](CCCCN)C(=O)N[C@@H](CCCCN)C(=O)N[C@@H](CCCCN)C(N)=O)NC(=O)[C@H](CC(C)C)NC(=O)[C@H](CC(C)C)NC(=O)[C@H](CC(=O)O)NC1=O)[C@@H](C)O | gag capsid C-terminal domain | binding, biolayer interferometry | PBS | pH 7.4, 30 °C, biotinylated peptide immobilised, added: C-CA 5 to 100 µM | – | Kd | > 100 µM
Cn1cnc(Cn2c(=O)[nH]/c(=N\c3cc4cn(C)nc4cc3Cl)n(Cc3cc(F)c(F)cc3F)c2=O)n1 | – | – | human, moderate renal impairment | oral, 375 mg, treatment-related decreased GFR, Severe severity | – | patients with adverse event | 0%

Some of these lines once more:
Molecule | tested on | test | system | conditions | how to read | quantity | value
C=CC(c1ccc(-c2ccc(O)c(Cl)c2)cc1)n1ccnc1 (stereo not drawn) | cyp121 | binding | – | – | – | Kd | 8.3 ± 1.7 µM
CNC(=O)[C@@H](NC(=O)[C@H](CC(C)C)[C@H](O)C(=O)NO)C(C)(C)C | human fibrinogen | SDS-PAGE | Daboia russelii | concentration not given, unit not given, added: KA venom | reference: untreated fibrinogen | remaining fibrinogen Aα chain | 0.634
